Measurements collected from several papers.
Parts stem from different laboratories: compare values within a part only.

Sample 1
Target: RING finger protein unkempt homolog, zinc fingers 1-6, GST-SBP tag (UNK, Homo sapiens, UniProt Q9C0B0, residues 30-357)
Chain of UniProt Q9C0B0 (30-357, looked up): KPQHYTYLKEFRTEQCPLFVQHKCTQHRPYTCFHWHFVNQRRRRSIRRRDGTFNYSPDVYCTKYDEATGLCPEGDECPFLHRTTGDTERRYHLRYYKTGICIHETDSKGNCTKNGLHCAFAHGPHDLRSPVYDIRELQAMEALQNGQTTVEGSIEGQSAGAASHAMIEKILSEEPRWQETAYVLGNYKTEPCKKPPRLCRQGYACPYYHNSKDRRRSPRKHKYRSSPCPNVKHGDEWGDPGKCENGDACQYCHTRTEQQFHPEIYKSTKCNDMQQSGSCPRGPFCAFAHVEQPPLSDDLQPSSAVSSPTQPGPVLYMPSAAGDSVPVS
Method: RNA Bind-n-Seq
Molecule type: RNA
Medium: in vitro
Concentration: not given
Setting: RNA with constant flanks, human and mouse sites, ends assumed
Reference: input RNA pool
Direction: higher = stronger binding
All sequences stand within: GGGAGUUCUACAGUCCGACGAUC … CAACAGAGGAUUGAGCAUCA
The bound/input enrichment of `GGACCAUAAUCAUGGUGGACAUGAUGGACUUGCCCAGGUCGCGCAUCAACGCCGGCAUGCUAGCUCAAUUCAUCGACAAGCCUGUCUGCUUCGUAGGGAGGCUGGAAAAGAUUCAUCCCA` is reported as 0.104 ratio.
`CUUCAGCAAGGUGGCCGCAUGCUCCCUGAGCUCUUCCAGUGUCACGGCUCUGCAGAUAACCUAGUUCUGCAUGCUUGGGGCAAGGAGACAAACUCAAAACUGAAAUCUCUAGGAGUGAGC` has a bound/input enrichment of 0.0973 ratio.
`GUCCACAAAAUAUAUUAAAACUGAAAUUUUUGUUCUUUUAGCUUUCGAAUUUACACUUUUGAGAGCAGUGUGAUUCUUUCAAGUCUAGCAGUGCAUUAAGAGGGCCUGAGCGUUUCCGUU` gave a bound/input enrichment of 0.762 ratio.
`GACCUAAUCCAGGAUGUUGAAUGGGAUUAUUGCCAUCUUACACCAUAUUUUUGUAAAAUGUAGCUUAAUCAUAAUCUCACAAUGAAGAUUUUGCAUCACUUUUGCUAUUAUCAUUCUUUU` has a bound/input enrichment of 0.143 ratio.
`CAGACAAAUAAACUAGUAGAUGAUGGAAAAAAGAAACCAAGAGCAAAACAAAAAACAAAUGAGAAAGGUACAUCGAGAAAGCAUACAACACUUAAGGAUGAAAAAAUAAAAUCUCAGUCU` gave a bound/input enrichment of 0.668 ratio.
The bound/input enrichment of `GGAGAGGUGGUUUCUAAAAGUGAUUGAAGCAGUUUGUGCAGUGUUUGUAAUUCUUGGGUAAGAGCCCAGGAUUUUGAAGAUAAUAGUUUUUUAGUAAAGUGCUACUAAAUGUAGUAAAUC` is reported as 8.64 ratio.
With `UCUGUCACUCCUCUUAUCUGAGAAGUGACCUUUUAUUUUUAAGAUGACUACAGACCUAUUUUUAGAUAUGUUUUCAGUACAAUUUUGAACAGCAACUUUUUAAUUAAACAUCUUCCAGUG` the bound/input enrichment was 1.87 ratio.
`GAAGUAGAAGAUCCUGUGGAUUCUGAUGGUGAAGUCCUGGGCUUUGAAAAUCUCGUCUUUAGCAUUUUUGAAUUUGUCCAUGCUCUACUAGAAAAUAGCAAAUUCAAAAGCACUGUUAAG` gave a bound/input enrichment of 1.17 ratio.

Sample 2
Target: Histone acetyltransferase KAT6A, winged helix 1, GST fusion (KAT6A, Homo sapiens, UniProt Q92794, residues 1-85)
Method: protein binding microarray
Molecule type: double-stranded DNA, one strand shown
Medium: in vitro
Concentration: not given
Setting: 8-mer, flanks averaged, mean of 2 arrays, mostly near background
Reference: not given
Direction: higher = stronger binding
Target sequence (chain): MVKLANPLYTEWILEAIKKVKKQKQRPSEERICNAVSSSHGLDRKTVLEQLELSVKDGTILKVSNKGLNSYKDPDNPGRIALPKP
With `CCCACAAA` the E-score was -0.204.
The E-score of `CTATTTGA` is reported as -0.0914.
`CGTAGGGA` has an E-score of 0.123.
`GCTATTCA` gave an E-score of -0.0714.
For `ATGCAATA`, the E-score was -0.244.
For `CGCATCTA`, the E-score was 0.177.
For `AAGGGCGT`, the E-score was 0.137.
For `CGATAGGC`, the E-score was 0.11.
`AGCCGTAG` has an E-score of 0.292.
`GGGACGCA` has an E-score of 0.13.
`AAGTGTTG` has an E-score of -0.192.
`ACATTCCC` has an E-score of 0.0804.
The E-score of `GGTGCCGA` is reported as 0.287.
`GGATCGTA` gave an E-score of 0.00718.
The E-score of `TCTCTTCA` is reported as -0.096.
With `GATCTCAA` the E-score was 0.0491.
The E-score of `AATCGTGC` is reported as 0.0234.
With `AGGATTTA` the E-score was -0.098.

Sample 3
Target: Interferon regulatory factor 5, full length, phosphomimetic (IRF5, Homo sapiens, UniProt Q13568-2, residues 1-514, K96S/S451D/S453D/S456D/S462D)
Method: protein-binding microarray
Molecule type: double-stranded DNA, one strand shown
Medium: in vitro
Concentration: 250 nM
Setting: 60-bp whole probe
Added: salmon DNA 0.4 mg/ml
Reference: random background probes
Direction: higher = stronger binding
All sequences stand within: GCCTAGCAC … GTCTTGATTCGCTTGACGCTGCTG
With `TTAGAACAGAGTCTCGATTAGTGCTAG` the log fluorescence was 0.256 z-score.
For `CAAAACATCATTGTCATATAGTGCTAG`, the log fluorescence was 0.883 z-score.
`GACCGTTCCCTTTTCCTGACGTGCTAG` has a log fluorescence of 0.233 z-score.
The log fluorescence of `TTAGATTTCAGTTCCGGTTAGTGCTAG` is reported as 4.03 z-score.
The log fluorescence of `GACCGACTGGGTTTCGGGACGTGCTAG` is reported as 2.92 z-score.
With `TCACTTTTCTGTTGTCTGACTGTGCTA` the log fluorescence was 2.03 z-score.
`GACGGACTGGGTTTCTGGACGTGCTAG` has a log fluorescence of 0.129 z-score.
`GACGGTTCCCTTTTCCTGATGTGCTAG` gave a log fluorescence of 0.211 z-score.
`GACGGTTTCGACTATCGGGATGTGCTA` gave a log fluorescence of 7.32 z-score.
`GACCTTTTTAAGATCTGTGCGTGCTAG` has a log fluorescence of -0.143 z-score.
With `TTGTATCTGGGTTCCCCCCCGTGCTAG` the log fluorescence was 0.679 z-score.
With `TTAGGTTCCCTTTGCCTTTAGTGCTAG` the log fluorescence was 0.106 z-score.
For `GTCGGTTTCGACTTTCGGGACGTGCTA`, the log fluorescence was 8.78 z-score.
`GACGAACTGATACTGGAGACGTGCTAG` has a log fluorescence of 0.267 z-score.
`TTAGAACTGAGTCTCGGTTAGTGCTAG` gave a log fluorescence of 0.975 z-score.
The log fluorescence of `CCATCTCTGCTCCTTCTGACAGTGCTA` is reported as 0.0244 z-score.
For `TCAATTCTGAAAATGGAACTGTGCTAG`, the log fluorescence was 0.557 z-score.
`TTAGATATCGGGTATCTATTAGTGCTA` has a log fluorescence of 3.16 z-score.
`GACGGATTCGGTTCCGGGACGTGCTAG` has a log fluorescence of 0.435 z-score.

Sample 4
Target: RNA binding protein fox-1 homolog 2, RRM domain, GST-SBP tag (RBFOX2, Homo sapiens, UniProt O43251-10, residues 100-194)
Method: RNA Bind-n-Seq
Molecule type: RNA
Medium: in vitro
Concentration: 365 nM
Setting: natural RNA segment, single round, ends assumed
Reference: no-protein control
Direction: higher = stronger binding
All sequences stand within: GGGAGUUCUACAGUCCGACGAUC … UGGAAUUCUCGGGUGCCAA
Residues (chain): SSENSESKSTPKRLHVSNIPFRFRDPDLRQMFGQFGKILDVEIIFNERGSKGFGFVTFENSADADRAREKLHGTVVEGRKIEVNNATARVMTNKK
Under “RBNS enrichment (R)”, `ACUGCCUUUUGCCAGCAUUCUAAAUUUGGAGUUUUACUGAGAAGGAAACUGUUUUUAUAGUUUUAAUCAGAGCUAUGCAUUUCAUACAGCUUUUUAAUUUACAAUGAAAC` is recorded as 0.866.
For `UAAGAAUGUGUUCAGAUAUUUGUGUUUUCUUUCCUCAAUUUCUUACCAUGUAAUGUAACAUCAAUUAAGAGAAUAUCUGUAGUUACCAUAUUUAAGAUUUGAGAUACCAA`, “RBNS enrichment (R)” read 0.628.
`ACAGCUUGCCUUUUUAAUGUUAGUCACAAUGUUUUUGUGGUUUGAAGUUUAGUUUAAUGUUAGUGCAGUGACGGGAAAUACACAUUAUGCUAAUGUUGAUGACAGAAUUU`: “RBNS enrichment (R)” 0.898.
`UCCAGCUCCCUCAUCUCUUCAAAAUUGAGUUCUUGGGAGAACAAAAGGUAUGUAUCCUGCAGUAGUUAAGCCCUUAAAUAAUUGGGAGUUGGGAAAUCGGAAUCAAAGUA`: “RBNS enrichment (R)” 0.53.
`CCCAUACCCUCACCCUUAAAAUUCUCCUGUAACUCAACUAACAAAAUCAAGCCUGAUUCAAAACAUCCUAGGGUGUUUUAAACACACCAUCUGGUGCCAAAUGAAGAUUU` — result for “RBNS enrichment (R)”: 1.39.
`AGGAAACACCACAGGCUGAACGGGGGAGGAAUGCACAUGCCACGCUGGGUGUCCCGGGUCGCGGGGAGGCAGCUCAGCUCUUAGGAGCAAGUUGUGGGGGCUUUUCAAGA` — result for “RBNS enrichment (R)”: 5.23.
For `UUGUUUGCACAUUAUUAUGGAACACUUUCCUACUUAGGCAGUUACUCUUCCAUGUUUAUACUUGGCCUCUUCUGCAAGAGGAAUCUCUUGAAAACAGGGGCACACAGAAA`, “RBNS enrichment (R)” read 0.306.
`GGAGGACGAUGCAAAAACAUAUUUAUCUUAGUUUGCUCUGCUGUAGUUCUGUUAUUUAUACUUGGUGUUGCUUGUCAUGGACACCGGUGAACAUGCCGUAACUCUGUGAC` — result for “RBNS enrichment (R)”: 0.812.

Repeated from above (sample 2):
`GGGACGCA` has an E-score of 0.13.
`AAGTGTTG` has an E-score of -0.192.
`ACATTCCC` has an E-score of 0.0804.
The E-score of `GGTGCCGA` is reported as 0.287.
`GGATCGTA` gave an E-score of 0.00718.
The E-score of `TCTCTTCA` is reported as -0.096.
With `GATCTCAA` the E-score was 0.0491.
The E-score of `AATCGTGC` is reported as 0.0234.
With `AGGATTTA` the E-score was -0.098.
